Published values pooled from the literature.
Compare with care: the assays were run in different laboratories. Numbers after ± are the reported error. ≈ marks a conversion by molar mass, not a printed value.
Organism: Acinetobacter baumannii

SMILES	test	system	conditions	scale	quantity	result
CCCCCCCC(=O)N[C@@H](CCCCNS(=O)(=O)c1cccc2c(N(C)C)cccc12)C(=O)N[C@H](C(=O)N[C@@H](CCN)C(=O)N[C@H]1CCNC(=O)[C@H]([C@@H](C)O)NC(=O)[C@H](CCN)NC(=O)[C@H](CCN)NC(=O)[C@H](CC(C)C)NC(=O)[C@@H](Cc2ccccc2)NC(=O)[C@H](CCN)NC1=O)[C@@H](C)O	binding, fluorometric titration	ATCC 19606 colistin-susceptible, whole cells	pH 7.0	–	Kd	7.9 ± 2.6 µM
CCCCCCCCCCCCCC(=O)N[C@@H](Cc1ccccc1)C(=O)N[C@@H](CCCCN)C(=O)N[C@@H](CCCCN)C(=O)N[C@@H](CCCCN)C(=O)N[C@@H](CCCCN)C(N)=O	–	clinical isolate	–	–	MBC	128 µg/mL (≈ 144 µM)
Oc1ccc(F)cc1-c1nc2c(Cl)cc(Cl)cc2[nH]1	–	colistin-resistant	concentration not given, added: polymyxin B nonapeptide up to 10 µg/mL	–	MIC change	no effect
CCCCCCCCCCCCCC(=O)N[C@@H](Cc1ccc2ccccc2c1)C(=O)N[C@@H](CCCCN)C(=O)N[C@@H](CCCCN)C(=O)N[C@@H](CCCCN)C(=O)N[C@@H](CCCCN)C(N)=O	–	clinical isolate	–	–	MBC	128 µg/mL (≈ 137 µM)
CCCCCCCC(=O)N[C@@H](CCN)C(=O)N[C@H](C(=O)N[C@@H](CCN)C(=O)N[C@H]1CCNC(=O)[C@H]([C@@H](C)O)NC(=O)[C@H](CCN)NC(=O)[C@H](CCN)NC(=O)[C@H](CC(C)C)NC(=O)[C@@H](Cc2ccccc2)NC(=O)[C@H](CCN)NC1=O)[C@@H](C)O	outer membrane integrity, flow cytometry	5075	concentration not given, 1 h, polymyxin treatment	reference: vehicle	DiBAC4 fluorescence	~36.8 fold
CC(C)C[C@H](NC(=O)[C@H](Cc1ccc(O)cc1)NC(=O)[C@@H]1CCCN1C(=O)[C@H](CCCNC(=N)N)NC(=O)[C@@H]1CCCN1C(=O)[C@H](CCCCN)NC(=O)[C@H](CC(=O)O)NC(=O)[C@@H]1CCCN1C(=O)[C@H](CCCNC(=N)N)NC(=O)C1(N)CCCCC1)C(=O)N1CCC[C@H]1C(=O)N[C@@H](CCCNC(=N)N)C(=O)N1CCC[C@H]1C(=O)N[C@@H](CCCNC(=N)N)C(=O)N1CCC[C@H]1C(=O)N1CCC[C@H]1C(=O)N[C@@H](CCCNC(=N)N)C(=O)N1CCC[C@H]1C(=O)N[C@H](C(=O)N[C@@H](CCCNC(=N)N)C(=O)N[C@@H](CSc1c(F)c(F)c(SC[C@H](NC(=O)[C@H](CCCNC(=N)N)NC(=O)[C@@H](NC(=O)[C@@H]2CCCN2C(=O)[C@H](CCCNC(=N)N)NC(=O)[C@@H]2CCCN2C(=O)[C@@H]2CCCN2C(=O)[C@H](CCCNC(=N)N)NC(=O)[C@@H]2CCCN2C(=O)[C@H](CCCNC(=N)N)NC(=O)[C@@H]2CCCN2C(=O)[C@H](CC(C)C)NC(=O)[C@H](Cc2ccc(O)cc2)NC(=O)[C@@H]2CCCN2C(=O)[C@H](CCCNC(=N)N)NC(=O)[C@@H]2CCCN2C(=O)[C@H](CCCCN)NC(=O)[C@H](CC(=O)O)NC(=O)[C@@H]2CCCN2C(=O)[C@H](CCCNC(=N)N)NC(=O)C2(N)CCCCC2)C(C)C)C(=O)NN)c(F)c1F)C(=O)NN)C(C)C	flow cytometry	–	0.25 to 0.5 × MBC	reference: untreated	ROS generation	1.5 fold
CCCCCCCCCCCCCCC(=O)N[C@@H](CCCCN)C(=O)N[C@@H](CCCCN)C(=O)N[C@@H](CCCCN)C(=O)N[C@@H](CCCCN)C(=O)N[C@@H](CCCCN)C(N)=O	–	clinical isolate	–	–	MBC	128 µg/mL (≈ 145 µM)
O.O.O.O.O=C([O-])Cc1ccccc1Nc1c(Cl)cccc1Cl.O=C([O-])Cc1ccccc1Nc1c(Cl)cccc1Cl.[Na+].[Na+].c1cnc2c(c1)ccc1cccnc12.c1cnc2c(c1)ccc1cccnc12	crystal violet	ATCC 19606	250 µM	–	biofilm inhibition	69.782 ± 0.065%
CC(C)C[C@H](NC(=O)[C@H](Cc1ccc(O)cc1)NC(=O)[C@@H]1CCCN1C(=O)[C@H](CCCNC(=N)N)NC(=O)[C@@H]1CCCN1C(=O)[C@H](CCCCN)NC(=O)[C@H](CC(=O)O)NC(=O)[C@@H]1CCCN1C(=O)[C@H](CCCNC(=N)N)NC(=O)C1(N)CCCCC1)C(=O)N1CCC[C@H]1C(=O)N[C@@H](CCCNC(=N)N)C(=O)N1CCC[C@H]1C(=O)N[C@@H](CCCNC(=N)N)C(=O)N1CCC[C@H]1C(=O)N1CCC[C@H]1C(=O)N[C@@H](CCCNC(=N)N)C(=O)N1CCC[C@H]1C(=O)N[C@H](C(=O)N[C@@H](CCCNC(=N)N)C(=O)N[C@@H](CSc1c(F)c(F)c(-c2c(F)c(F)c(SC[C@H](NC(=O)[C@H](CCCNC(=N)N)NC(=O)[C@@H](NC(=O)[C@@H]3CCCN3C(=O)[C@H](CCCNC(=N)N)NC(=O)[C@@H]3CCCN3C(=O)[C@@H]3CCCN3C(=O)[C@H](CCCNC(=N)N)NC(=O)[C@@H]3CCCN3C(=O)[C@H](CCCNC(=N)N)NC(=O)[C@@H]3CCCN3C(=O)[C@H](CC(C)C)NC(=O)[C@H](Cc3ccc(O)cc3)NC(=O)[C@@H]3CCCN3C(=O)[C@H](CCCNC(=N)N)NC(=O)[C@@H]3CCCN3C(=O)[C@H](CCCCN)NC(=O)[C@H](CC(=O)O)NC(=O)[C@@H]3CCCN3C(=O)[C@H](CCCNC(=N)N)NC(=O)C3(N)CCCCC3)C(C)C)C(=O)NN)c(F)c2F)c(F)c1F)C(=O)NN)C(C)C	inner membrane permeabilization, PI/SYTO flow cytometry	–	1 × MBC	–	PI-positive bacteria	50 to 60%

For quick reference, copied from above:
SMILES	test	system	conditions	scale	quantity	result
O.O.O.O.O=C([O-])Cc1ccccc1Nc1c(Cl)cccc1Cl.O=C([O-])Cc1ccccc1Nc1c(Cl)cccc1Cl.[Na+].[Na+].c1cnc2c(c1)ccc1cccnc12.c1cnc2c(c1)ccc1cccnc12	crystal violet	ATCC 19606	250 µM	–	biofilm inhibition	69.782 ± 0.065%
